# Published values from different studies.
# Numbered parts are unrelated; each lists some results of a single study.
# UniProt P07949, sequence (whole entry, unmodified, looked up): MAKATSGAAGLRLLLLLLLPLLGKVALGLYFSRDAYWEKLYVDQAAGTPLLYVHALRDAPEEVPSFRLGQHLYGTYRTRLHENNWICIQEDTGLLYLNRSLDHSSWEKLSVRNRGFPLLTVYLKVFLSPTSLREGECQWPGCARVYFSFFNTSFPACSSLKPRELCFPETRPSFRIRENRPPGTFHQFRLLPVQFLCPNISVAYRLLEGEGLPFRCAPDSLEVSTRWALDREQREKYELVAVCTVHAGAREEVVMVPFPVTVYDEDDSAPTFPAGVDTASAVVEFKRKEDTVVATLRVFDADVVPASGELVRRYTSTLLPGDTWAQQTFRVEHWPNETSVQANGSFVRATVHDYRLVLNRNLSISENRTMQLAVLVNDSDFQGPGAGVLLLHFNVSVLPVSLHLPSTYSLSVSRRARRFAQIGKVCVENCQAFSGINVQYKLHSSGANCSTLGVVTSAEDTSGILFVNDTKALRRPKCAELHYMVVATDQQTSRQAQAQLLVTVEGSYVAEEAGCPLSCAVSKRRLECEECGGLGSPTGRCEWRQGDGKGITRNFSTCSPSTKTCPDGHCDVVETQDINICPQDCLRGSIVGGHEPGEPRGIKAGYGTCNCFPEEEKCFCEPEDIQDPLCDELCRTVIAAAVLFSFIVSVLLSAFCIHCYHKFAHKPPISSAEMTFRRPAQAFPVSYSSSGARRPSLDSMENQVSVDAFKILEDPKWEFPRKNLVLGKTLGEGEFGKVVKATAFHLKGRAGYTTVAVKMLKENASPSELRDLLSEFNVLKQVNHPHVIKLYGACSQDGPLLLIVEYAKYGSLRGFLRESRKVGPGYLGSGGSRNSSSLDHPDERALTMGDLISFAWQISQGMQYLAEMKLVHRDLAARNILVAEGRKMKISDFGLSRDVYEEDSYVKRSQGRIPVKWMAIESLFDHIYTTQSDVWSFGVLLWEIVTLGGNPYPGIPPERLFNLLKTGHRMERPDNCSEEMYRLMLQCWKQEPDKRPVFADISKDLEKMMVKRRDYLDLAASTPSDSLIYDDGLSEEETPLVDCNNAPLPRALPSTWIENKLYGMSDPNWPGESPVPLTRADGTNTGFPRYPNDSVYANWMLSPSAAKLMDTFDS
# UniProt Q8N568, sequence (whole entry, looked up): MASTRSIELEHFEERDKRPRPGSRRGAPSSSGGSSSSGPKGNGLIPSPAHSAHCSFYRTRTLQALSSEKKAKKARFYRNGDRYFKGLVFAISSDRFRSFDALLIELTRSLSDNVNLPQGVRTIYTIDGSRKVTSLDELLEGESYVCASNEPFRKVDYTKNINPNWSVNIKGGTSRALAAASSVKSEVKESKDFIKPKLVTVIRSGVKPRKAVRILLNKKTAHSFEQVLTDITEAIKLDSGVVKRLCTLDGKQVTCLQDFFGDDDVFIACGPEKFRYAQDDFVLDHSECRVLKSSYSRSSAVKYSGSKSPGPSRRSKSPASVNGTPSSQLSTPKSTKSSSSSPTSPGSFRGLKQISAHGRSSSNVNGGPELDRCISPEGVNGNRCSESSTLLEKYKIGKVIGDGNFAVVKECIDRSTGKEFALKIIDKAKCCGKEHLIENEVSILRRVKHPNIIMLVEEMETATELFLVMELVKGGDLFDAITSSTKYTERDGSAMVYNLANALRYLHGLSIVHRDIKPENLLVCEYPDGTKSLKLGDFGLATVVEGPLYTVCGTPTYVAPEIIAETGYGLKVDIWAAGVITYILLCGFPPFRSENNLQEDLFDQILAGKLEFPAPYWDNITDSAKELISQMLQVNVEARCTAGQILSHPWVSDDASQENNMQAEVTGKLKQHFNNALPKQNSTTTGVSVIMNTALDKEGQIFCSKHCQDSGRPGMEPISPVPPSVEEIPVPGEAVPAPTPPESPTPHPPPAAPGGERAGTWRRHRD
# UniProt Q13153, sequence (whole entry, looked up): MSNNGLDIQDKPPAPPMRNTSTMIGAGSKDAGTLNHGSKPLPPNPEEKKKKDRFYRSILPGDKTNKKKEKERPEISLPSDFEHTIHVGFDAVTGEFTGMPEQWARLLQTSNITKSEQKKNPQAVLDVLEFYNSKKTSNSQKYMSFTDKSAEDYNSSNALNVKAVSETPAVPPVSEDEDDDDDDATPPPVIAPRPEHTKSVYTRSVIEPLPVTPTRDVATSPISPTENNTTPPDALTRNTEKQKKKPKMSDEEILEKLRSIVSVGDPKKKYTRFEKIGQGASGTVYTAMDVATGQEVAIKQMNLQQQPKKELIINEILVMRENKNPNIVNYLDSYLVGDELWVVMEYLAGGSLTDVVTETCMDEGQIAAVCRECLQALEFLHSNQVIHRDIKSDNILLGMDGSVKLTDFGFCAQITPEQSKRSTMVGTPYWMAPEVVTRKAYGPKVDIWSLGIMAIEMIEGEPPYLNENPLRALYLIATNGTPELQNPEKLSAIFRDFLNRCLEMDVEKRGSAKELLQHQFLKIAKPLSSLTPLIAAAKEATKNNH
# UniProt P16591, sequence (whole entry, looked up): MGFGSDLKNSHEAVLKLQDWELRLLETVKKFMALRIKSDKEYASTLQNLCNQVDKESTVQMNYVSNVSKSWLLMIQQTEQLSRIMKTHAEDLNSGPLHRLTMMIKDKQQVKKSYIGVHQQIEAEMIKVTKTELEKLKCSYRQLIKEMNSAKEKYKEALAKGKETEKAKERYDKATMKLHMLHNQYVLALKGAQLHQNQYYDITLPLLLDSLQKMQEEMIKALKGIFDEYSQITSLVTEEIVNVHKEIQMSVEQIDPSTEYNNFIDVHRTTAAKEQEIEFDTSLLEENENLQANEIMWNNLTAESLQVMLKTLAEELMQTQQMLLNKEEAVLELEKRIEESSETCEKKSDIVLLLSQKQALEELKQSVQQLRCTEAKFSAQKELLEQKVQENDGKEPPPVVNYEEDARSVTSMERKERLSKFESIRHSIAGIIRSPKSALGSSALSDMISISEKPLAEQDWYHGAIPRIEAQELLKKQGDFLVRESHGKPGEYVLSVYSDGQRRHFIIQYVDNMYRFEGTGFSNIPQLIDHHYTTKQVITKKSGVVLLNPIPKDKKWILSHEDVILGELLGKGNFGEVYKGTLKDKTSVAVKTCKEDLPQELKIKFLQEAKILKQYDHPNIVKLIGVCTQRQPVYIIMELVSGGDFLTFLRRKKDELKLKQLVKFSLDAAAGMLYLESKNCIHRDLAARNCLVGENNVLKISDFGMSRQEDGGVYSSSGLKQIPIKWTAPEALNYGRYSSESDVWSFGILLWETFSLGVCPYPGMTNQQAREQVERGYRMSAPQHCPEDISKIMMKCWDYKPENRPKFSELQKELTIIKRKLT
# UniProt P57059, sequence (whole entry, looked up): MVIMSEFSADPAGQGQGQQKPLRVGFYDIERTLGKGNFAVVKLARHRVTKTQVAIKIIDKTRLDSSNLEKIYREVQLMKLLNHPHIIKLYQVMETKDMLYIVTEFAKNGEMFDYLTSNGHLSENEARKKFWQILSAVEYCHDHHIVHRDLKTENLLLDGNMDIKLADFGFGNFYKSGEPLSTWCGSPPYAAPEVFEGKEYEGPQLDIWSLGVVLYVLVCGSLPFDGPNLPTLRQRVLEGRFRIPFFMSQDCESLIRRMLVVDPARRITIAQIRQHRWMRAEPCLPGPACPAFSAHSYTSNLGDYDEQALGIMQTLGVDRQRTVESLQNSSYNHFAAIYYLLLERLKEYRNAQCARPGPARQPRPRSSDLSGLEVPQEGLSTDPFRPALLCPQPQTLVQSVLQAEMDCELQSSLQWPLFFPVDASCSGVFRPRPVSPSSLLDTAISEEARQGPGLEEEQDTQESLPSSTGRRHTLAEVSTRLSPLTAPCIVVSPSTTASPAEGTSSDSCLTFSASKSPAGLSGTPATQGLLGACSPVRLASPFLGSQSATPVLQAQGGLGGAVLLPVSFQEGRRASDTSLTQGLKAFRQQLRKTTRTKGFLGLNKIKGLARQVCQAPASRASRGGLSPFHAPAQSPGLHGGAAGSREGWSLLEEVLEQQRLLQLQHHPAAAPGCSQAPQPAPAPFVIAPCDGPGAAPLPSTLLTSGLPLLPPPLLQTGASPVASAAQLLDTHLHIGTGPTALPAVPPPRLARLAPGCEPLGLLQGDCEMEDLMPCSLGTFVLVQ
# UniProt P0C1S8, sequence (whole entry, looked up): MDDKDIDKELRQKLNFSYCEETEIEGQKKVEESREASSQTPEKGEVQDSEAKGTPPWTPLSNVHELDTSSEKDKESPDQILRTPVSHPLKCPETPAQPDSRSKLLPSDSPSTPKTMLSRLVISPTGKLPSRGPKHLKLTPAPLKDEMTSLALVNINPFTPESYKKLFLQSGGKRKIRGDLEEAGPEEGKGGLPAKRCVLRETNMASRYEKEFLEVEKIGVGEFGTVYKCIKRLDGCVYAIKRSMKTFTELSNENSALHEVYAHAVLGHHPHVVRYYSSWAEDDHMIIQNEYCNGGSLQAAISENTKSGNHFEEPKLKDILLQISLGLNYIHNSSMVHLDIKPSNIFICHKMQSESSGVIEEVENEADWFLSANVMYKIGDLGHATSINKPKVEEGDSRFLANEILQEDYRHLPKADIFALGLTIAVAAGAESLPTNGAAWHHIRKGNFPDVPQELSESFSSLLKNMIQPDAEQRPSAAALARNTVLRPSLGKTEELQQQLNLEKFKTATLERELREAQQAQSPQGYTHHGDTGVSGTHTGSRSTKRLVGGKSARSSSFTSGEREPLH

# Series 1
# SMILES: CC(=O)N[C@@H](Cc1c[nH]c2ccccc12)C(=O)N[C@@H](CCC(=O)C=[N+]=[N-])C(=O)OC(C)C
# Dose: dose not given
# Reference: vehicle
test,test system,log2 fold change
item: N1-methylinosine,"mouse, EL4 tumour-bearing, EL4 tumour",-0.997
item: galactitol,"mouse, EL4 tumour, tumour",0.559
item: N1-Methyl-2-pyridone-5-carboxamide,"mouse, EL4 tumour-bearing, EL4 tumour",-0.281
item: N-acetylputrescine,"mouse, EL4 tumour-bearing, EL4 tumour",0.344
item: N-delta-acetylornithine,"mouse, EL4 tumour-bearing, EL4 tumour",-0.744
item: gamma-tocopherol/beta-tocopherol,"mouse, EL4 tumour-bearing, EL4 tumour",0.482
"metabolomics, item: cytidine 2',3'-cyclic monophosphate","mouse, EL4 tumour",2.04
item: C5 acylcarnitine,"Mus musculus, EL4 tumour",-0.385
item: gamma-glutamylisoleucine*,"mouse, EL4 tumour-bearing, EL4 tumour",-0.123
"metabolomics, item: uridine 2'-monophosphate","mouse, EL4 tumour",1.28
item: N-methylproline,"mouse, EL4 tumour-bearing, EL4 tumour",-0.395
item: mannose,"mouse, EL4 tumour-bearing, EL4 tumour",1.09

# Series 2
# Cell line: Huh-7
# Tested at: 10 µM
# Time: 24 h
Compound,viability [%]
[H]/N=C(/N)NS(=O)(=O)c1ccc(N)cc1,90.5
COc1cc2nc(N3CCN(C(=O)C4CCCO4)CC3)nc(N)c2cc1OC (stereo not drawn),95.6
Cc1cc(C(C)(C)CC(C)(C)C)ccc1OCCOCC[N+](C)(C)Cc1ccccc1,85.5
CCCC(=O)O[C@]1(C(=O)CO)CC[C@H]2[C@@H]3CCC4=CC(=O)CC[C@]4(C)[C@H]3[C@@H](O)C[C@@]21C,99.6
CCN(CCCc1ccccc1)CCCc1ccccc1,96.6
NS(=O)(=O)c1cc2c(cc1Cl)NCNS2(=O)=O,99.8
COc1ccc(C(=O)CC(=O)c2ccc(C(C)(C)C)cc2)cc1,91.4
CC(=O)OCC1=C(C(=O)O)N2C(=O)[C@@H](NC(=O)Cc3cccs3)[C@H]2SC1,102
Nc1ccc(C(=O)O)c(O)c1,95.9
CC(C)COCC(CN(Cc1ccccc1)c1ccccc1)N1CCCC1 (stereo not drawn),96.8
C[N+]1(CCCCC[N+]2(C)CCCC2)CCCC1,102
Nc1nc(F)nc2c1ncn2[C@@H]1O[C@H](COP(=O)(O)O)[C@@H](O)[C@@H]1O,79.1

# Series 3
# Target: MAP kinase-activated protein kinase 5 (MAPKAPK5, Homo sapiens, UniProt Q8IW41)
# UniProt Q8IW41, sequence (whole entry, looked up): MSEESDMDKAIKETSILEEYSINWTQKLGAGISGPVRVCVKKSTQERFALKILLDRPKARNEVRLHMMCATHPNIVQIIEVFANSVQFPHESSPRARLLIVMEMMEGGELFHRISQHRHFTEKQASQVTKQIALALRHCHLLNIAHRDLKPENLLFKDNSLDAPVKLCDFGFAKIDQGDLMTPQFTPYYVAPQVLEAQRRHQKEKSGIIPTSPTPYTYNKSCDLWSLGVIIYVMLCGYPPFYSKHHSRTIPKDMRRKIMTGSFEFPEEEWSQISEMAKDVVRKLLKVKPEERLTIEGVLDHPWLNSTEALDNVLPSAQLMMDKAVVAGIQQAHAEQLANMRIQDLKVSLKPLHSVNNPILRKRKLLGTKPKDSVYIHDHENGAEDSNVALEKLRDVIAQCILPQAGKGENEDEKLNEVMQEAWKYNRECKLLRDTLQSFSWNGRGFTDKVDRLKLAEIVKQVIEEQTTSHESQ
# Effect on: enzyme activity
# Action: inhibitor
# Tested at: 0.5 µM
# Reference: control
Structure (SMILES),remaining activity
CCOc1nc(NC(=O)Cc2cc(OC)ccc2OC)cc(N)c1C#N,86.5%
c1ccc(-c2cnc(Nc3ccc(OCCN4CCCC4)cc3)s2)cc1,83.4%
COc1cc2ncnc(Nc3ccc(O)c(Br)c3)c2cc1OC,98.7%
c1ccc(-c2[nH]ncc2-c2ccnc3ccccc23)nc1,95.6%
COc1cc2c(cc1OC)-c1[nH]nc(Nc3cccc(F)c3)c1C2,82.3%
O=C(NC(NC(=S)Nc1ccc(F)c([N+](=O)[O-])c1)C(Cl)(Cl)Cl)C(c1ccccc1)c1ccccc1 (stereo not drawn),102%
Cc1cc2ncc(-c3ccccc3)nc2cc1C,95.1%
Cc1cn(-c2cc(NC(=O)c3ccc(C)c(Nc4nccc(-c5cccnc5)n4)c3)cc(C(F)(F)F)c2)cn1,91.5%
Ic1cccc(CSc2nnc(-c3ccncc3)o2)c1,83.6%
Nc1cccc(-c2cc3c(Oc4cccc(O)c4)ncnc3[nH]2)c1,125%
CN([C@@H](Cc1ccc(OS(=O)(=O)c2cccc3cnccc23)cc1)C(=O)N1CCN(c2ccccc2)CC1)S(=O)(=O)c1cccc2cnccc12,97%
COc1cc2ncnc(Nc3cccc(Cl)c3)c2cc1OC,89.5%
Cn1nc2c3c(cccc31)C(=O)c1ccccc1-2,94.5%
CCN(CC)CCNC(=O)c1c(C)[nH]c(/C=C2\C(=O)Nc3ccc(Cl)cc32)c1C,91.6%
N#C/C(=C\c1ccc(O)c(O)c1)C(=O)NCc1ccccc1,94.2%
O=C1C(Cl)=C(N2C(=O)CCC2=O)C(=O)c2ccccc21,73.6%
Cc1nc2cc3nc(-c4cccs4)cnc3cc2n1C,100%
N#Cc1c(NC(=O)c2cccc3ccccc23)sc2c1CCCC2,96.6%
O=C(Nc1cccc(Nc2nccc(Nc3cccc(C(F)(F)F)c3)n2)c1)C1CC1,91.9%
O=c1cc(-c2cccc3c2Sc2ccccc2S3)oc(N2CCOCC2)c1,94.5%
CCN(CC)C(=O)c1ccc(Nc2nc(OCC3CCCCC3)c3[nH]cnc3n2)cc1,87.8%
O=C1c2ccccc2-c2n[nH]c3cccc1c23,91.3%
CN(C)C[C@H]1CCn2c(c(C3=C(c4cn(C)c5ccccc45)C(=O)NC3=O)c3ccccc32)C1,95.4%

# Series 4
# Compound: CC1=C(C#N)[C@@H](c2ccc3[nH]nc(C)c3c2)C(C#N)=C(c2ccc(Cl)cc2)N1
# Tested at: 1 µM
target,test,remaining binding [%]
"EPHA1 (Homo sapiens, UniProt P21709)","cell-free assay, competition with immobilised ligand",100
"PAK1 (Homo sapiens, UniProt Q13153)","cell-free assay, competition with immobilised ligand",100
"Cyclin-dependent kinase 4, with cyclin D3 (CDK4, Homo sapiens, UniProt P11802)","cell-free assay, competition with immobilised ligand",100
"CDK11A (Homo sapiens, UniProt Q9UQ88)","binding, competition with immobilised ligand",90
"ACVR2B (Homo sapiens, UniProt Q13705)","binding, competition with immobilised ligand",100
"SIK1 (Homo sapiens, UniProt P57059)",competition binding,100
"RET (Homo sapiens, UniProt P07949, M918T)","cell-free assay, competition with immobilised ligand",97.2
"FER (Homo sapiens, UniProt P16591)","cell-free assay, competition with immobilised ligand",97.9
"DAPK3 (Homo sapiens, UniProt O43293)","cell-free assay, competition with immobilised ligand",100
"CDK15 (Homo sapiens, UniProt Q96Q40)","cell-free assay, competition with immobilised ligand",75.4
"RIOK3 (Homo sapiens, UniProt O14730)","cell-free assay, competition with immobilised ligand",100
"CDK2 (Homo sapiens, UniProt P24941)","cell-free assay, competition with immobilised ligand",100
"TNNI3K (Homo sapiens, UniProt Q59H18)","cell-free assay, competition with immobilised ligand",94.3
"WEE2 (Homo sapiens, UniProt P0C1S8)","cell-free assay, competition with immobilised ligand",100
"CAMKK2 (Homo sapiens, UniProt Q96RR4)","cell-free assay, competition with immobilised ligand",86.5
"CSNK1E (Homo sapiens, UniProt P49674)","cell-free assay, competition with immobilised ligand",91.7
"MAPKAPK5 (Homo sapiens, UniProt Q8IW41)","cell-free assay, competition with immobilised ligand",100
"EGFR (Homo sapiens, UniProt P00533, L858R/T790M)","cell-free assay, competition with immobilised ligand",100
"ROCK2 (Homo sapiens, UniProt O75116)","cell-free assay, competition with immobilised ligand",91.9
"STK39 (Homo sapiens, UniProt Q9UEW8)","cell-free assay, competition with immobilised ligand",90.7
"FLT3 (Homo sapiens, UniProt P36888, ITD)","cell-free assay, competition with immobilised ligand",100
"EGFR (Homo sapiens, UniProt P00533, A750P/del747-749)","cell-free assay, competition with immobilised ligand",80.4
"PIP4K2B (Homo sapiens, UniProt P78356)","cell-free assay, competition with immobilised ligand",69.3
"FLT3 (Homo sapiens, UniProt P36888, D835V)","cell-free assay, competition with immobilised ligand",89.7
"DCLK2 (Homo sapiens, UniProt Q8N568)","cell-free assay, competition with immobilised ligand",97.9

# Repeated from above (series 3):
Structure (SMILES),remaining activity
CCOc1nc(NC(=O)Cc2cc(OC)ccc2OC)cc(N)c1C#N,86.5%
Nc1cccc(-c2cc3c(Oc4cccc(O)c4)ncnc3[nH]2)c1,125%
CCN(CC)CCNC(=O)c1c(C)[nH]c(/C=C2\C(=O)Nc3ccc(Cl)cc32)c1C,91.6%
Ic1cccc(CSc2nnc(-c3ccncc3)o2)c1,83.6%
Cn1nc2c3c(cccc31)C(=O)c1ccccc1-2,94.5%
O=c1cc(-c2cccc3c2Sc2ccccc2S3)oc(N2CCOCC2)c1,94.5%
Cc1cn(-c2cc(NC(=O)c3ccc(C)c(Nc4nccc(-c5cccnc5)n4)c3)cc(C(F)(F)F)c2)cn1,91.5%
O=C1C(Cl)=C(N2C(=O)CCC2=O)C(=O)c2ccccc21,73.6%
